Results gathered from unrelated publications.
Numbered parts are unrelated; each lists some results of a single study.

Set 1
Target: RING finger protein unkempt homolog, zinc fingers 1-6, GST-SBP tag (UNK, Homo sapiens, UniProt Q9C0B0, residues 30-357)
Chain of UniProt Q9C0B0 (30-357, looked up): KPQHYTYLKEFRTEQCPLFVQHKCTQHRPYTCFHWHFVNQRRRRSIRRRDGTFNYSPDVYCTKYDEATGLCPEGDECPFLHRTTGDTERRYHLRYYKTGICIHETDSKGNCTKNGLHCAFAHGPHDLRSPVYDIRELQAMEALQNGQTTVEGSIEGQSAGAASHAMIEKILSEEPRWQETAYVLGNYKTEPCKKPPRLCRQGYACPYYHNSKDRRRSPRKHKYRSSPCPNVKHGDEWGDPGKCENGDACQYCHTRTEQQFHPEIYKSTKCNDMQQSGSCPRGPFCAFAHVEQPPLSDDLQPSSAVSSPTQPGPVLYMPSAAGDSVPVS
Method: RNA Bind-n-Seq
Molecule type: RNA
Sample: in vitro
Tested at: not given
Setting: RNA with constant flanks, human-mouse chimeric sites, ends assumed
Relative to: input RNA pool
Reading: higher = stronger binding
Oligonucleotide	bound/input enrichment
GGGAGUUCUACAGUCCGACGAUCUUCAAAGAAAAGGGCAGCUGUGUCAUUUCAUAAGUAACUCUGGGGGAGGGAAAUUCUGUUCUUUUGUUUUUAGUUUUCCCAAAUGAAGCCAAAGUGUUUUUUAAGGAACUGAGAAAAAAUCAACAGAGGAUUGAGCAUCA	0.221 ratio
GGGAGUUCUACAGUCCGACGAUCGAAACAUUUAAAUUUAAAGAAGCUGUUGUUUUAGGGAGUACGGACUUUCUAGAAGAUGAUAUAGAGAAAAUUGUAGAAGAACUGGGGAAAGAGUAUAAAGGCAAUGCCUACCAUCUGAUGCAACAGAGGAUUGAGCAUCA	2.84 ratio
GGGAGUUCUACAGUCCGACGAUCGAAACAUUUAAAUUUAAAGAAGCUGUUGUUCUAGGAAGUACGGACUUCCUAGAAGAUGAUAUAGAAAAAAUUGUAGAAGAACUGGGGAAAGAGUAUAAGGGCAACGCCUACCAUCUGAUGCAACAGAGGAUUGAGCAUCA	1.54 ratio
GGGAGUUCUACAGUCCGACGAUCUAUUUUUGACAGCCACACAAUCUUGGCAUGUAUUAAGGAAAAAAAAAAUCCCUGUUGAAGUAGUUUUUCCACCUAUCAGCACUGAGUAAAUGCCAUAACUCCGCGGAAAUGGUCUAAAUACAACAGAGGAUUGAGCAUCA	0.292 ratio
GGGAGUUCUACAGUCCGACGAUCCACUCGAGGGCUGCCGUUUUCUGUUUCUCCCUGGGCUGCGGAAAGCCAGAAGAUUUUAUCUAGCUUAUACAAGGCUGCUGGUGUUCCCUCUUUUUUUCCACGAGGGUGUUUUUGGCUGCACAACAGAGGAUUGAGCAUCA	0.388 ratio
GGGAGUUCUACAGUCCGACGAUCCUGUGACCACAAGAUCCUGAAGUUUGAGCAGCUGAAGUUGACUCCCUCUCCUUGCCUGAACCCCCCCCCACUGCCCCCCCAUCCCCCAGUGUCGGCUGAGAUGUUGCCUCUGCACGGUUCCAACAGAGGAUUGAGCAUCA	2.04 ratio

Set 2
Target: Ras GTPase-activating protein-binding protein 1, full length (G3BP1, Homo sapiens, UniProt Q13283)
Chain of UniProt Q13283 (whole entry, looked up): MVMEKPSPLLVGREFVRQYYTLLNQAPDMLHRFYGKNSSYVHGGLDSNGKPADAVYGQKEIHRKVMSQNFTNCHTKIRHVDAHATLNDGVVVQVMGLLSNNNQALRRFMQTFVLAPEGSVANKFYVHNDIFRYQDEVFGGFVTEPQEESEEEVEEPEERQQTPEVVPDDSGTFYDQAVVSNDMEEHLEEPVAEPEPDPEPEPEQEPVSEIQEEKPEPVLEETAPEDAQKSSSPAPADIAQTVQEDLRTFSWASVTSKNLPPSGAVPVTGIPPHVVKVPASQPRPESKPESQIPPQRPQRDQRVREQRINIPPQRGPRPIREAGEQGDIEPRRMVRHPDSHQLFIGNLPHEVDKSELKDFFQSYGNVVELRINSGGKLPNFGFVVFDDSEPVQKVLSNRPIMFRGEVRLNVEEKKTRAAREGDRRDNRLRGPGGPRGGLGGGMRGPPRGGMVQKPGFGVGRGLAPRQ
Method: RNA Bind-n-Seq
Molecule type: RNA
Sample: in vitro
Tested at: 200 nM
Setting: whole 134-nt RNA, ends assumed
Together with: 150 mM LiCl
Relative to: input library
Reading: higher = stronger binding
Each molecule: 7-deaza-guanosine replaces G
Oligonucleotide	log2 enrichment
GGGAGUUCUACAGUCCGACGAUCACCAUGCAGGGGGGCAUCUUUGGGAAGUGGGGCAAGGGGGGGAUAGGGAGGGGGGUAACACUUUGGGAACAGGUGGUCCCAGGUCGUUUCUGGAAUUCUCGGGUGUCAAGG	-0.186
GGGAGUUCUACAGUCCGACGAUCCAAGUCCUGUGCUACACAUCGUAUGUACCGAAUCGGGGUUUGGGUUUGGUUUGGGAAAGUAUUAUGUUACGCCGUUCGGAUCUGCACUUCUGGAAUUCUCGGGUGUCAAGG	-0.287
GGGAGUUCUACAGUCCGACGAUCUCCUGUGCUACACAUCGUAUGUACCGAAUCAAAUUUUUAAACCCCCCCAAAUUUUUAAAAAAGUAUUAUGUUACGCCGUUCGGAUCUGCAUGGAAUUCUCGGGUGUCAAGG	1.35
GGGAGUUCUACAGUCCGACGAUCCUCAAGUCCUGUGCUACACAUCGUAUGUACCGAAUCGGGGCCGGGCCGGCCGGAAAGUAUUAUGUUACGCCGUUCGGAUCUGCACUUCCAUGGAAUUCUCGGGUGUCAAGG	0.876
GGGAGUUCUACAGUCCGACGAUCCACAGACAACACGCACCCACACAGACACAGAGGGAAGGGGUUGGGAUGGGGACAGGGUGAAAAGCAGGGCGGGGUAGGACCCCAGCCCCUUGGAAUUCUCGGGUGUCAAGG	-0.702
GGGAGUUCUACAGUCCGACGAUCCUCAAGUCCUGUGCUACACAUCGUAUGUACCGAAUCGGCCGGGCCGGGCCGGGAAAGUAUUAUGUUACGCCGUUCGGAUCUGCACUUCCAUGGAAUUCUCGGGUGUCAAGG	0.186
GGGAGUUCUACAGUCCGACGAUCGUCCUGUGCUACACAUCGUAUGUACCGAAUCGGAAAAAAAGGAAAAAAAGGAAAAAGGAAAGUAUUAUGUUACGCCGUUCGGAUCUGCACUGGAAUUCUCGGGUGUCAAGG	-1.06
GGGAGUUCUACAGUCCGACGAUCAGUCCUGUGCUACACAUCGUAUGUACCGAAUCGGGUUUUUGGGAGGGAAAAAAAGGGAAAGUAUUAUGUUACGCCGUUCGGAUCUGCACUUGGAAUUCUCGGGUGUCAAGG	-0.768
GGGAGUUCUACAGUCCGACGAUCACAGAGGGUUUGGUGGACGUUAUUCUCUAUCAUCAACCCGAUGACAAAAAGAAGAAUCGGGGGUUCUGCUUCCUUGAAUAUGAGGAUCACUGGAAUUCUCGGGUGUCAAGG	-2.5
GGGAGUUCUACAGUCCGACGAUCCUGUGCUACACAUCGUAUGUACCGAAUCGGCCCCCCCGGCCCCCCCGGGGCCCCCCCGGGGAAAGUAUUAUGUUACGCCGUUCGGAUCUGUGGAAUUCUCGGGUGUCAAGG	0.141
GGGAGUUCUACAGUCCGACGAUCUCCUGUGCUACACAUCGUAUGUACCGAAUCAAACCCCCCCAAACCCCCAAAUUUUUAAAAAAGUAUUAUGUUACGCCGUUCGGAUCUGCAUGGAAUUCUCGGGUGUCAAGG	0.577

Set 3
Target: Sal-like protein 4, full length isoform A (SALL4, Homo sapiens, UniProt Q9UJQ4, residues 1-1053)
Chain of UniProt Q9UJQ4 (whole entry, looked up): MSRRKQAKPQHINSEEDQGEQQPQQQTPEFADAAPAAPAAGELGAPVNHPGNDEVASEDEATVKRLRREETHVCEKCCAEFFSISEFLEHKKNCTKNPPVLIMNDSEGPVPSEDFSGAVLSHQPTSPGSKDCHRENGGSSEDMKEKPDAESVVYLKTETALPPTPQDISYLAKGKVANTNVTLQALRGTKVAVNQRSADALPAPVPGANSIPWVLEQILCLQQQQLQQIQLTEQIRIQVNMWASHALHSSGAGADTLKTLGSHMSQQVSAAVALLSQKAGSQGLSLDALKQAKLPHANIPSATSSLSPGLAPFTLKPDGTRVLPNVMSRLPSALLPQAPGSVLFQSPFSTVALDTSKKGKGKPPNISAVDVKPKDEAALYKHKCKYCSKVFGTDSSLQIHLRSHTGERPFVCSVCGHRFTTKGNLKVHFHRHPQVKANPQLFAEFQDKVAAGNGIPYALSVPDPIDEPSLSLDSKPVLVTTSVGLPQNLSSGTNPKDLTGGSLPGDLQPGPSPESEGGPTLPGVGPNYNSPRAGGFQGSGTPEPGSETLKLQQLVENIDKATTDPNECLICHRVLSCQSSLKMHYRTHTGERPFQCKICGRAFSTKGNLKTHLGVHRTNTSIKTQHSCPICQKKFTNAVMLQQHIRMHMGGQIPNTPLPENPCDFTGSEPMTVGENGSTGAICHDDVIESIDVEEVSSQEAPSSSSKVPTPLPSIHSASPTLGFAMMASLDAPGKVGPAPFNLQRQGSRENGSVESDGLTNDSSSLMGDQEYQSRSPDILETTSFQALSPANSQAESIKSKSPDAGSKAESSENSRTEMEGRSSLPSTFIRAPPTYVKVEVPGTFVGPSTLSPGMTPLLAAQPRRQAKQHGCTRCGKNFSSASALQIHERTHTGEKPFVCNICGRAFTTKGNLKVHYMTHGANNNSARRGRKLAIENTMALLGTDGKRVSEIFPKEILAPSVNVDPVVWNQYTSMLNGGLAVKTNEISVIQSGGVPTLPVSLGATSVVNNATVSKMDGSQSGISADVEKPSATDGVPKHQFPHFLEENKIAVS
Method: universal PBM
Molecule type: double-stranded DNA, one strand shown
Sample: in vitro
Tested at: 600 nM
Setting: 8-mer, flanks averaged, mean of replicates
Reading: higher = stronger binding
Oligonucleotide	E-score
AGGAAACT	-0.0261
TGAATTCA	0.121
ACGGCGAG	-0.227
ACATTTTG	0.253
CTTTTTTC	0.073
CCAGCGGG	-0.222
CTATTAAG	0.151
TCTATAAA	0.364
AGCCGCCC	-0.318
CCTGCACC	-0.337
CGGTGGCA	-0.303
ACTCGAAC	-0.0991
GTCTGCCA	-0.142
ACACCTGG	-0.233
ACCTCACA	-0.1
AGAACAAA	0.356
CCCCTGCC	-0.236

Set 4
Target: Histone acetyltransferase KAT6A, both winged helices, GST fusion (KAT6A, Homo sapiens, UniProt Q92794, residues 1-181)
Method: protein binding microarray
Molecule type: double-stranded DNA, one strand shown
Sample: in vitro
Tested at: not given
Setting: 8-mer, flanks averaged, mean of 2 arrays, mostly near background
Relative to: not given
Reading: higher = stronger binding
Residues (chain): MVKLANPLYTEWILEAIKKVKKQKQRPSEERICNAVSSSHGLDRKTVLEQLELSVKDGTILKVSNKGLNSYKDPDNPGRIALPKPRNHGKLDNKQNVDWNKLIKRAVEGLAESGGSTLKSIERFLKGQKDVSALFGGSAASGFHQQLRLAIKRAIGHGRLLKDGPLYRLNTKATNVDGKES
Oligonucleotide	E-score
CCGGTCGA	0.135
AAAAGCGA	0.165
ATCGCAGA	-0.11
CCTCCGCC	0.105
AAGCCAAT	-0.169
CAACGATA	-0.0206
CACCTCAG	-0.169
CCGAACCG	0.159
ATAAAGCG	0.176
AGAGAGGC	-0.284
AGGAGTAA	-0.174
AGAGTAGG	-0.25
AGCCTATA	-0.145
GGGTATAC	0.0236
GGACCATA	-0.046
GACCCTGC	-0.0418

Set 5
Target: Interferon regulatory factor 5, full length, phosphomimetic (IRF5, Homo sapiens, UniProt Q13568-2, residues 1-514, S451D/S453D/S456D/S462D)
Method: protein-binding microarray
Molecule type: double-stranded DNA, one strand shown
Sample: in vitro
Tested at: 940 nM top
Setting: 60-bp whole probe
Together with: salmon DNA 0.4 mg/ml
Relative to: random background probes
Reading: higher = stronger binding
Shared flanks, not repeated: GCCTAGCAC … GTCTTGATTCGCTTGACGCTGCTG
Oligonucleotide	fitted relative affinity [z-score]
TCAAGACTTTCTTTCAAACTGTGCTAG	0.931
TCATTTTTTTAATTGAAACTGTGCTAG	0.542
TCAGTTTCACTTTCCAAACTGTGCTAG	10.9
TCATGCTTTCATTTATTACTGTGCTAG	1.66
TTATATTTCGGGTATCGATTAGTGCTA	3.31
CTAGGTTTCGGTATCGGTTAGTGCTAG	14.2
TCAGATTTTTAGTTAGAACTGTGCTAG	0.29
GACGGTATCGGTCTCTGGACGTGCTAG	8.18
GACGGAATCCTTTTCCTGACGTGCTAG	-0.396
TCATCTCTGCTCCTTCTGACTGTGCTA	1.03
GACGGTTTCGGTATCAGGACGTGCTAG	13.6
GACGGTATCCTCCTGCTGACGTGCTAG	0.57
TTAGGTCTCAGTCTCGGTTAGTGCTAG	3.79
CCGGGGGGCACAGGGTGAGGGTGCTAG	2.25
AATAGCTTTTCATTTTTTAACGTGCTA	0.782
GATGGTTCCGGTTTCGGGACGTGCTAG	5.94
GACGGTATCGGTCTTGGGACGTGCTAG	7.6

A few entries again (set 3):
Oligonucleotide	E-score
CCAGCGGG	-0.222
TGAATTCA	0.121
CCCCTGCC	-0.236
TCTATAAA	0.364
ACGGCGAG	-0.227
CCTGCACC	-0.337
CGGTGGCA	-0.303
AGCCGCCC	-0.318
ACACCTGG	-0.233
AGAACAAA	0.356
ACATTTTG	0.253
